Measurements of several laboratories.
Each numbered part is a random draw from the data of one study; scales do not carry over between parts.
Sequence of UniProt P33078 (whole entry, looked up): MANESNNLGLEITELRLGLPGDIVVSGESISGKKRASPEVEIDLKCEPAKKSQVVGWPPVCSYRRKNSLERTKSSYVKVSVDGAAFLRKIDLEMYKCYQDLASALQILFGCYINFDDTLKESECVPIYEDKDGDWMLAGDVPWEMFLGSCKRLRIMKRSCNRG
Sequence of UniProt Q16513 (whole entry, looked up): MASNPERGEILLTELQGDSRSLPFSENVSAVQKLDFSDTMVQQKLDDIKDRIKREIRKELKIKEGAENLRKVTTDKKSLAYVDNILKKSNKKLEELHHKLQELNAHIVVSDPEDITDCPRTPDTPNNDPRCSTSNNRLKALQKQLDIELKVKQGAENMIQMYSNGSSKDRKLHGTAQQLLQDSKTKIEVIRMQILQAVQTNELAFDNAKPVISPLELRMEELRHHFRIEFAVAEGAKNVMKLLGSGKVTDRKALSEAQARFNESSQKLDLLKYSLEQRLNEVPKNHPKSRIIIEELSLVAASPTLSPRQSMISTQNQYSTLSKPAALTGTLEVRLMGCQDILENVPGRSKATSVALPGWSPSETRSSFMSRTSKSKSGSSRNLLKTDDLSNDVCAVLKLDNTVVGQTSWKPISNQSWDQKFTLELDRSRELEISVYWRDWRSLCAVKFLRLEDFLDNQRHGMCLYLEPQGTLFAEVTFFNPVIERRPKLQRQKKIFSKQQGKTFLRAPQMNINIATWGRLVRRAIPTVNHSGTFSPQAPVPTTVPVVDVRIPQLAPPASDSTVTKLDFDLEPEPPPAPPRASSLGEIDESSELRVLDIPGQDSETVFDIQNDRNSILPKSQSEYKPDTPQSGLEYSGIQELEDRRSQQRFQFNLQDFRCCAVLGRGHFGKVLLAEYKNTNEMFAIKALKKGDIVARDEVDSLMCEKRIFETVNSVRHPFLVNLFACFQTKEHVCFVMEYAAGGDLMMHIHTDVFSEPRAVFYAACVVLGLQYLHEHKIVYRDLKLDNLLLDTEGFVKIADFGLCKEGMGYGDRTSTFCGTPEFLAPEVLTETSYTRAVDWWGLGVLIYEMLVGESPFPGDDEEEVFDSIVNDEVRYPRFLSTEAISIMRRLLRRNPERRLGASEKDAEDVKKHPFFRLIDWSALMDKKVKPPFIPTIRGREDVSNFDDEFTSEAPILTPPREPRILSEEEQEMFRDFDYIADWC
Sequence of UniProt P19525 (whole entry, looked up): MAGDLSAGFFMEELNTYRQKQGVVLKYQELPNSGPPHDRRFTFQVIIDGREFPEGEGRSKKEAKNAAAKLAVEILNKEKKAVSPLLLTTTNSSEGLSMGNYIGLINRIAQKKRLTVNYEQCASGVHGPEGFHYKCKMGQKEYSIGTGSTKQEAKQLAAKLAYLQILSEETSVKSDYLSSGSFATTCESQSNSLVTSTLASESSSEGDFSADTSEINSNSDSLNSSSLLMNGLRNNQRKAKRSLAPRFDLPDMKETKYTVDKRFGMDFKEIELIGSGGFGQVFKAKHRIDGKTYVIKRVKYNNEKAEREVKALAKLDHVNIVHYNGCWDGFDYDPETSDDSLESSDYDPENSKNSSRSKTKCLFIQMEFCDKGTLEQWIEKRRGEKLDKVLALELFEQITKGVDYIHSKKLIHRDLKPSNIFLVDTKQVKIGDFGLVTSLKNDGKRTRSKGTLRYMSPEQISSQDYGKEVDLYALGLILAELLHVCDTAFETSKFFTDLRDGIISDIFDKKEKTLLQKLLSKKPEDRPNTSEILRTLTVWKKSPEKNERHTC
Sequence of UniProt O14730 (whole entry, looked up): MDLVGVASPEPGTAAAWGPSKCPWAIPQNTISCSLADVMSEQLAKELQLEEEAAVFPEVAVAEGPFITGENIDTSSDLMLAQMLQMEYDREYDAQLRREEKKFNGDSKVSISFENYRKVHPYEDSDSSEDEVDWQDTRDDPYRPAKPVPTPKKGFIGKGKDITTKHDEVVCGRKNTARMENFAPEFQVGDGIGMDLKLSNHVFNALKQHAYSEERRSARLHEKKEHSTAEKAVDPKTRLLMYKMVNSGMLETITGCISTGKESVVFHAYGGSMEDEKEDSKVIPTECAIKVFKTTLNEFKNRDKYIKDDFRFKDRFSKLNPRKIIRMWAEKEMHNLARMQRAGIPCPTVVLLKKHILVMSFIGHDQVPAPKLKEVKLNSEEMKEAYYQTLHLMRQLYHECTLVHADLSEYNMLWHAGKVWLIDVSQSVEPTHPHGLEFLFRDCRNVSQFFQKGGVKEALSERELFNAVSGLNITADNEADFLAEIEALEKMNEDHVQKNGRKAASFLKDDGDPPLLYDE
Sequence of UniProt Q9C5X0 (whole entry, looked up): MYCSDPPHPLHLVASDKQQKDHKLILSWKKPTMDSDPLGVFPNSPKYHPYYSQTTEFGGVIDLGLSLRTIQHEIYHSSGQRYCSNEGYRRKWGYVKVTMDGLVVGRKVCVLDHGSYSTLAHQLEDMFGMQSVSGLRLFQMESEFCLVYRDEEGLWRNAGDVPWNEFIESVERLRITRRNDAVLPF
Sequence of UniProt Q9ZTX8 (whole entry, looked up): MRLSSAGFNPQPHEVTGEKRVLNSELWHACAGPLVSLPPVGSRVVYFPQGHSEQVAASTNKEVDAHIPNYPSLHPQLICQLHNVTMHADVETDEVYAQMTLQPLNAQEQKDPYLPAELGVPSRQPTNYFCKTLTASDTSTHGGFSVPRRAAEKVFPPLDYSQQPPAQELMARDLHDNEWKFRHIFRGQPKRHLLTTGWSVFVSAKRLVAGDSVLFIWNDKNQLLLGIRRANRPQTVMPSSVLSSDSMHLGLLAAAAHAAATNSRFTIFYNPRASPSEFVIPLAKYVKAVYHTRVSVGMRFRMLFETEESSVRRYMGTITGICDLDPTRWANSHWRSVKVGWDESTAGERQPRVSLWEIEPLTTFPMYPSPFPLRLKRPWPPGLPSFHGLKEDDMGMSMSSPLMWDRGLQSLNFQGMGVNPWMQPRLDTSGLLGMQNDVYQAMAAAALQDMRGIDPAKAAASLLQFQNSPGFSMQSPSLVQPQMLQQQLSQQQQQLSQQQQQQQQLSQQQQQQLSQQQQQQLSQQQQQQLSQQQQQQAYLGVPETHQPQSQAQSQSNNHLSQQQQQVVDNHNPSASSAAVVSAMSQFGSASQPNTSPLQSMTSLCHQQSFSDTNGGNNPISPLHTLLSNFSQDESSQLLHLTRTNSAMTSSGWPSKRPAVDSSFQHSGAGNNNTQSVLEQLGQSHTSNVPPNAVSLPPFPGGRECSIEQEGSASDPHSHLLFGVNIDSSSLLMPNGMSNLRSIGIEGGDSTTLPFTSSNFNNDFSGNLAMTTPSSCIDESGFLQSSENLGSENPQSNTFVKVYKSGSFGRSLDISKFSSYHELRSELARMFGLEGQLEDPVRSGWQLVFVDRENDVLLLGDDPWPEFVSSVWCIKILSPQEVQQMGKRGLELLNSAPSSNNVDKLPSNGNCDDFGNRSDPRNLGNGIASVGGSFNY
Sequence of UniProt Q9C7I9 (whole entry, looked up): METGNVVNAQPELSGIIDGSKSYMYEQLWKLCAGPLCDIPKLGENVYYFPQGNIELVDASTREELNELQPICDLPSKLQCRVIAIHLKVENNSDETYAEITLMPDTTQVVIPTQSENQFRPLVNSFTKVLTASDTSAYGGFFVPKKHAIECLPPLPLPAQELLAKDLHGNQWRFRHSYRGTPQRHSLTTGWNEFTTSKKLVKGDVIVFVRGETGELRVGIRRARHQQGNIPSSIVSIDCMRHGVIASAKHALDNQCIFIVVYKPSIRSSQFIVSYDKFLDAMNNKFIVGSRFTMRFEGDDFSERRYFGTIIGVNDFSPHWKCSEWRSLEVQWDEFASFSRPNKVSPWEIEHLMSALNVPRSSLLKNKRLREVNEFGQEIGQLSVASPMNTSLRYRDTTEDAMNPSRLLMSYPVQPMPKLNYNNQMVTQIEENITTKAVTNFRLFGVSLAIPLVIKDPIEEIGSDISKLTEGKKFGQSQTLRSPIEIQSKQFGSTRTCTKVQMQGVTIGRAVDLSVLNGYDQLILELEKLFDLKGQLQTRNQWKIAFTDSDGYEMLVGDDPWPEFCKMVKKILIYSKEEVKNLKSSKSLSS
Sequence of UniProt Q9SKN5 (whole entry, looked up): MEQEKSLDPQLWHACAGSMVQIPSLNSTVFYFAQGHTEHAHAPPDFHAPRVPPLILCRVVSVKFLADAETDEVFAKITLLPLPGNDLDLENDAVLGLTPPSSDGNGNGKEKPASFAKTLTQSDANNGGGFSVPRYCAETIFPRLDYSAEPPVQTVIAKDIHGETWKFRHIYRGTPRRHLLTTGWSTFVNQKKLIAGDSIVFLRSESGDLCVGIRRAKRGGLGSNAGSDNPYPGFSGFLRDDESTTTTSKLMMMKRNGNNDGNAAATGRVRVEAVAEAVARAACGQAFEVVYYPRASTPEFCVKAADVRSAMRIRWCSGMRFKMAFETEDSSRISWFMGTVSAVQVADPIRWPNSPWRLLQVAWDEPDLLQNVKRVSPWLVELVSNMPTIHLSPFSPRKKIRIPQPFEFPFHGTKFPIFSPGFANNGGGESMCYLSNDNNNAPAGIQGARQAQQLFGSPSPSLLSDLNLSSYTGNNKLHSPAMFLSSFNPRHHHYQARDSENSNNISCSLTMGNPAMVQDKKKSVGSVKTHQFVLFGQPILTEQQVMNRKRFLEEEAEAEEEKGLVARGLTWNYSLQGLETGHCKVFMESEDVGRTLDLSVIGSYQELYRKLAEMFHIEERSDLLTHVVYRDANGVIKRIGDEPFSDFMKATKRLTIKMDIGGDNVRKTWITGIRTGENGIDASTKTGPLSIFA
Sequence of UniProt Q9C966 (whole entry, looked up): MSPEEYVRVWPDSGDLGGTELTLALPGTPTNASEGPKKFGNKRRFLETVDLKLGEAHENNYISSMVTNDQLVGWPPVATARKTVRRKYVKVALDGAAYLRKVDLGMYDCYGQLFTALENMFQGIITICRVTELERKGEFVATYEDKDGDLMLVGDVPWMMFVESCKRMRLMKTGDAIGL

Series 1
Compound: CN([C@@H]1CCc2c(CC(=O)O)c3ccccc3n2C1)S(=O)(=O)c1ccc(F)cc1
Effect on: cell-free assay
Method: competition with immobilised ligand
Concentration: 1 µM
| target | remaining binding |
| --- | --- |
| Receptor-type tyrosine-protein kinase FLT3 (FLT3, Homo sapiens, UniProt P36888) | 100% |
| Cyclin-dependent kinase 4, with cyclin D3 (CDK4, Homo sapiens, UniProt P11802) | 100% |
| Interferon-induced, double-stranded RNA-activated protein kinase (EIF2AK2, Homo sapiens, UniProt P19525) | 100% |
| Serine/threonine-protein kinase RIO3 (RIOK3, Homo sapiens, UniProt O14730) | 100% |
| Serine/threonine-protein kinase N2 (PKN2, Homo sapiens, UniProt Q16513) | 100% |
| ALK tyrosine kinase receptor (ALK, Homo sapiens, UniProt Q9UM73, C1156Y) | 98% |

Series 2
Target: Microphthalmia-associated transcription factor, full length (MITF, Homo sapiens, UniProt O75030-10, residues 1-413)
Method: protein-binding microarray
Molecule type: hairpin DNA
Sample: in vitro
Concentration: not given
Setting: whole hairpin DNA, median over replicate spots
Relative to: not given
Reading: higher = stronger binding
| Strand | median fluorescence [a.u.] |
| --- | --- |
| CACTTAGCACGTGATTTTGGTCCTCCAAAATCACGTGCTAAGTGACACTC (5mC at 38) | 24200 |
| GAGGCCTAGCACGTGCGGCCTCCTGGCCGCACGTGCTAGGCCTCACACTC | 20000 |
| CACTTGGCACGTGATTTTGGTCCTCCAAAATCACGTGCCAAGTGACACTC (5mC at 39) | 24800 |
| CACTTAGCACGCGATTTTGGTCCTCCAAAATCGCGTGCTAAGTGACACTC (5mC at 12 32) | 7090 |
| GAGGCCTAGCGCGTGCTGCCTCCTGGCAGCACGCGCTAGGCCTCACACTC (5mC at 34) | 16500 |
| GAGGCCTAGCACGTGCGGCCTCCTGGCCGCACGTGCTAGGCCTCACACTC (5mC at 16) | 18200 |
| CACTTACGACGTGATTTTGGTCCTCCAAAATCACGTCGTAAGTGACACTC (5mC at 7 37) | 5920 |
| GAGGCCTAGCACGTGCTGCCTCCTGGCAGCACGTGCTAGGCCTCACACTC (5mC at 32) | 10800 |

Series 3
Target: Discoidin domain-containing receptor 2 (DDR2, Homo sapiens, UniProt Q16832)
Effect on: enzyme activity
Mode: inhibitor
Concentration: 0.5 µM
Relative to: control
Construct (Q16832 1-855): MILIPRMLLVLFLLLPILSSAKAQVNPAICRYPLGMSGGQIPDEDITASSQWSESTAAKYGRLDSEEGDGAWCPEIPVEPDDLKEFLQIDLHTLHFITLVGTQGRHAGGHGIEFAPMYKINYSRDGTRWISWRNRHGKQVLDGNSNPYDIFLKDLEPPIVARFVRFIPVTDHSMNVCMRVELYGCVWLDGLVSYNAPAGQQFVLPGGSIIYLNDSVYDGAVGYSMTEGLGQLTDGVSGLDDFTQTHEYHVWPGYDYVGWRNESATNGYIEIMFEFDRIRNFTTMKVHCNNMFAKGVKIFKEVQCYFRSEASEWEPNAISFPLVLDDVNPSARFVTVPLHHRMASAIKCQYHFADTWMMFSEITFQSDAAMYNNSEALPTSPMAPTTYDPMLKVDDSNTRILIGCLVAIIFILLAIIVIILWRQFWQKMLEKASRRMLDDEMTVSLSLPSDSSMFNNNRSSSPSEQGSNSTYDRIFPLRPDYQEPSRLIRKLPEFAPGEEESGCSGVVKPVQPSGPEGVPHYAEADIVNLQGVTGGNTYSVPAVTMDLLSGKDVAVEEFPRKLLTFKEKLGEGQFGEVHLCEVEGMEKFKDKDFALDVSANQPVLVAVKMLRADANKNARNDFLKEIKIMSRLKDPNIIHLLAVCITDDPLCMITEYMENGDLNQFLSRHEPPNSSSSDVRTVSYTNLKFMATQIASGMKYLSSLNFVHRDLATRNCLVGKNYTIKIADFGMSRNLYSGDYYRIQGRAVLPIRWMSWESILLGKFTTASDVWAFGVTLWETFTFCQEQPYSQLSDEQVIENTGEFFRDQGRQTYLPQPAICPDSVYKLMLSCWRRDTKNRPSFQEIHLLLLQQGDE
| Structure (SMILES) | remaining activity [%] |
| --- | --- |
| O=c1c2ccccc2[nH]c(=S)n1CCN1CCC(=C(c2ccc(F)cc2)c2ccc(F)cc2)CC1 | 97.6 |
| C#Cc1cccc(Nc2ncnc3cc(OCCOC)c(OCCOC)cc23)c1 | 121 |
| O=S(=O)(c1cccc2cnccc12)N1CCCNCC1 | 92.2 |
| COc1ccc(C(=O)Nc2sc3c(c2C(N)=O)CCCC3)cc1OC | 102 |
| Cc1cccc(-c2[nH]c(C(C)(C)C)nc2-c2ccc3c(c2)OCO3)n1 | 98.3 |
| OCC(O)CCON=C1C(c2c(O)[nH]c3ccccc23)=Nc2ccccc21 (centres unmarked) | 86.1 |
| COc1cc2ncnc(Nc3ccc(F)c(Cl)c3)c2cc1OCCCN1CCOCC1 | 117 |
| CNC(=O)c1cc(Oc2ccc(NC(=O)Nc3ccc(Cl)c(C(F)(F)F)c3)cc2)ccn1 | 3.41 |
| Nc1ncnc2n[nH]c(Nc3ccc(F)cc3)c12 | 94.2 |
| CC(C)[C@H](CO)Nc1nc(Nc2cc(N)cc(Cl)c2)c2ncn(C(C)C)c2n1 | 128 |
| COc1cc2nccc(Oc3ccc(NC(=S)NC(=O)c4ccccc4C)cc3)c2cc1OC | 54.1 |
| CO[C@H]1C[C@@H]2CC[C@@H](C)[C@@](O)(O2)C(=O)C(=O)N2CCCC[C@H]2C(=O)O[C@H]([C@H](C)C[C@@H]2CC[C@@H](O)[C@H](OC)C2)CC(=O)[C@H](C)/C=C(\C)[C@@H](O)[C@@H](OC)C(=O)[C@H](C)C[C@H](C)/C=C/C=C/C=C/1C | 95.6 |
| COc1ccc(OC)c2c(=S)c3ccccc3[nH]c12 | 97.1 |

Series 4
Sequence: B1 (IAA2)
Method: two-hybrid
Relative to: out of 4 tests
Reading: higher = firmer interaction
B1: IAA2 (Arabidopsis thaliana, UniProt P49678); chain MAYEKVNELNLKDTELCLGLPGRTEKIKEEQEVSCVKSNNKRLFEETRDEEESTPPTKTQIVGWPPVRSSRKNNNSVSYVKVSMDGAPYLRKIDLKTYKNYPELLKALENMFKVMIGEYCEREGYKGSGFVPTYEDKDGDWMLVGDVPWDMFSSSCKRLRIMKGSDAPALDSSL
| partner | positive tests |
| --- | --- |
| IAA5 (Arabidopsis thaliana, UniProt P33078) | 2 |
| ARF7 1030-1164 (Arabidopsis thaliana, UniProt P93022) | 3 |
| IAA34 (Arabidopsis thaliana, UniProt Q9C5X0) | 4 |
| ARF6 790-935 (Arabidopsis thaliana, UniProt Q9ZTX8) | 3 |
| IAA26 (Arabidopsis thaliana, UniProt Q8LAL2) | 0 |
| IAA15 (Arabidopsis thaliana, UniProt Q9C966) | 2 |
| ARF10 575-693 (Arabidopsis thaliana, UniProt Q9SKN5) | 0 |
| ARF20 484-590 (Arabidopsis thaliana, UniProt Q9C7I9) | 0 |
